Results from different studies.
Numbered parts are unrelated; each lists some results of a single study.

Series 1 — technique: protein-binding microarray; form: double-stranded DNA, one strand shown; matrix: in vitro; concentration: 2200 nM top; notes: 60-bp whole probe; with: salmon DNA 0.4 mg/ml; relative to: random background probes; direction: higher = stronger binding; shared flanks, not repeated: GCCTAGCAC … GTCTTGATTCGCTTGACGCTGCTG
Target: Interferon regulatory factor 7, full length, phosphomimetic (IRF7, Homo sapiens, UniProt Q92985, residues 1-503, S471D/S472D/S475D/S476D/S477D/S483D/S484D/S487D)
UniProt Q92985, sequence (whole entry, unmodified, looked up): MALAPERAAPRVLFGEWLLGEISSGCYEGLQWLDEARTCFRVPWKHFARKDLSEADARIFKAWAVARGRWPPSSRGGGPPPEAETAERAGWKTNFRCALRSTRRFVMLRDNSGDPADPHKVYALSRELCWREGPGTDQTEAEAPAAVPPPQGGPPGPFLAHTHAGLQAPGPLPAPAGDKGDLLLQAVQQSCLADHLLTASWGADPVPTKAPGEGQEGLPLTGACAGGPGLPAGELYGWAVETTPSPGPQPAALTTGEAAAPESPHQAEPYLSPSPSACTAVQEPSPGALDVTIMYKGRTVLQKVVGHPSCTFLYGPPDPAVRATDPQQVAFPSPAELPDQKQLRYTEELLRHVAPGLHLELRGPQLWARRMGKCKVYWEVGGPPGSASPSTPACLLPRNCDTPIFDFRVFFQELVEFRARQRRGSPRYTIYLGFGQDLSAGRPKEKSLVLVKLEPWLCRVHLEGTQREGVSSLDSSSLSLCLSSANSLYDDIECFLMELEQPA
Under “fitted relative affinity”, `TTAGGTATCGCGTATCGGTTAGTGCTA` is recorded as 0.566 z-score.
For `TCCACTTGTCTTTTCATTTTGTGCTAG`, “fitted relative affinity” read 3.36 z-score.
Under “fitted relative affinity”, `ATAGATTTCAGACTGGATTAGTGCTAG` is recorded as 0.0493 z-score.
Under “fitted relative affinity”, `TTAGGTTTCATTATCCTTTAGTGCTAG` is recorded as 2.88 z-score.
Under “fitted relative affinity”, `GACGATATCGGTTATCGAGACGTGCTA` is recorded as 0.213 z-score.
`GACGGTCTCCTTATCCAGACGTGCTAG` — result for “fitted relative affinity”: 0.839 z-score.
`TTAGATTTCTGTATCGATTAGTGCTAG`: “fitted relative affinity” 1.06 z-score.
For `CTTTCACCTCTCGGCCTGATGTGCTAG`, “fitted relative affinity” read 2.39 z-score.
`GACGGTTTCTACTTTCGGGACGTGCTA`: “fitted relative affinity” 7.71 z-score.
`TTAGGACTGGGTATCCGTTAGTGCTAG` — result for “fitted relative affinity”: -0.287 z-score.
`TCAGCTTTGACTCTTTCACTGTGCTAG`: “fitted relative affinity” 1.08 z-score.
For `GACGGTTCCCTTTGCCTGACGTGCTAG`, “fitted relative affinity” read 1.55 z-score.
For `TTAGATTTCAGTTCCGAGTAGTGCTAG`, “fitted relative affinity” read 1.65 z-score.
Under “fitted relative affinity”, `TCATGTTTCCTTGTACGACTGTGCTAG` is recorded as 2.41 z-score.

Series 2 — technique: universal PBM; form: double-stranded DNA, one strand shown; matrix: in vitro; concentration: 600 nM; direction: higher = stronger binding
Target: Sal-like protein 4, full length isoform A (SALL4, Homo sapiens, UniProt Q9UJQ4, residues 1-1053)
UniProt Q9UJQ4, sequence (whole entry, looked up): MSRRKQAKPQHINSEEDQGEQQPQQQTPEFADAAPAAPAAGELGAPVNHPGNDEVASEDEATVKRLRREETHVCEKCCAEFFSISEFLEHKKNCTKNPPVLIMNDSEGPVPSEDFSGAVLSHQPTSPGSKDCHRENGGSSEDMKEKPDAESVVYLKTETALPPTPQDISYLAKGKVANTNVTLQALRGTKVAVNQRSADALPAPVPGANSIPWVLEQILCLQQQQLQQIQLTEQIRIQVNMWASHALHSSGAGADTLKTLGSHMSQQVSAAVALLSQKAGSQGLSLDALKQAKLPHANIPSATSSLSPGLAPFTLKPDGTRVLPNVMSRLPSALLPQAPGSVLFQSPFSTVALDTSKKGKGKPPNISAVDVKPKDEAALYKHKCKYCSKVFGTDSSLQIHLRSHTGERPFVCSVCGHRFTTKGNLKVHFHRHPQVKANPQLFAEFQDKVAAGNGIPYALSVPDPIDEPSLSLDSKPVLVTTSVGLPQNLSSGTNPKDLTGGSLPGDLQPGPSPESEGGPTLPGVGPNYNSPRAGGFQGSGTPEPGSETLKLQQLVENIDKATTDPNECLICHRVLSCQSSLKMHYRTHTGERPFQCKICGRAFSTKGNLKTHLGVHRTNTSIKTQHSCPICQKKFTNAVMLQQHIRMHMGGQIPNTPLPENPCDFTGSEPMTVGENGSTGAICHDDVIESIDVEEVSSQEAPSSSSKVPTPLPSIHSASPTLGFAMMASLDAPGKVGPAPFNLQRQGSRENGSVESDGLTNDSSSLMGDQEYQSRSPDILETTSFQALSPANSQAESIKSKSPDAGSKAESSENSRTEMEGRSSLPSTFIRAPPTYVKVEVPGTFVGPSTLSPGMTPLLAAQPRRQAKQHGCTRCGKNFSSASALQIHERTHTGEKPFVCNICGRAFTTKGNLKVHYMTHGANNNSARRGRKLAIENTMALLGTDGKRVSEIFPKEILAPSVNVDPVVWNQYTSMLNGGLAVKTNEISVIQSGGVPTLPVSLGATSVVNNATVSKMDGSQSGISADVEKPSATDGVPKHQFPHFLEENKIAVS
Notes: 8-mer, flanks averaged, mean of replicates
With `AAAACGTC` the E-score was 0.169.
With `CCAACTAC` the E-score was -0.0184.
With `GGGAAAAC` the E-score was 0.00723.
The E-score of `AACACAGT` is reported as 0.0921.
`AGGCAAAC` has an E-score of -0.0535.
For `ATAGTCGC`, the E-score was 0.0537.
`CCGTCTGA` has an E-score of -0.228.
`AGGGCTCA` gave an E-score of -0.191.
The E-score of `CGTAATCC` is reported as -0.0965.
`CTGCAGCC` has an E-score of -0.254.
`CAGGCAGC` gave an E-score of -0.238.
The E-score of `CGCACTCC` is reported as -0.206.
`CTACGCCC` has an E-score of -0.226.

Series 3 — technique: RNA Bind-n-Seq; form: RNA; matrix: in vitro; concentration: 20 nM; notes: 6-mer, flanks averaged, single round; with: 150 mM LiCl; relative to: input library; direction: higher = stronger binding
Target: TAR DNA-binding protein 43, full length, His tag (TARDBP, Homo sapiens, UniProt Q13148, residues 1-414)
`ACCGAC`: “6-mer enrichment (R)” 0.804.
For `UCUACG`, “6-mer enrichment (R)” read 0.819.
`CGUGCU`: “6-mer enrichment (R)” 0.925.
For `ACAGCG`, “6-mer enrichment (R)” read 0.887.
For `ACGGCA`, “6-mer enrichment (R)” read 0.869.
Under “6-mer enrichment (R)”, `GUAAGC` is recorded as 0.941.
For `UCCGGU`, “6-mer enrichment (R)” read 0.903.
`CUCUUC` — result for “6-mer enrichment (R)”: 0.887.

Further values, each from its own experiment
For `PhoQ, residues 284 288 289 292 302 303 HSSMNL`, the fold induction was 10.8 (PhoP, residues 12 14 15 18 19 VQALL (Escherichia coli, UniProt P23836); Sort-seq, refers to: YFP reporter; E. coli; PhoQ-PhoP variant library, with: 10 µM Mg2+; relative to: high Mg2+ state, higher = stronger signaling).

Excerpt of the above (series 3):
For `ACAGCG`, “6-mer enrichment (R)” read 0.887.
For `ACGGCA`, “6-mer enrichment (R)” read 0.869.
Under “6-mer enrichment (R)”, `GUAAGC` is recorded as 0.941.
For `UCCGGU`, “6-mer enrichment (R)” read 0.903.
`CUCUUC` — result for “6-mer enrichment (R)”: 0.887.
